Literature values that unrelated publications cite.
Each numbered part shows a few of the values that one paper quotes.

Block 1
Target: dopamine D2 receptor
Effect on: binding
Compound | Ki [nM]
CCN(CC)CCNC(=O)c1cc(Cl)c(N)cc1OC | 53
CN1CCN2c3ncccc3Cc3ccccc3C2C1 (stereo not shown) | 5450
CN(C)C(=O)N[C@H]1CC[C@H](CCN2CCN(c3cccc(Cl)c3Cl)CC2)CC1 | 0.642
CN1CCN(C2=Nc3ccccc3Oc3ccc(Cl)cc32)CC1 | 21
O=C1CC2(CCCC2)CC(=O)N1CCCCN1CCN(c2ncccn2)CC1 | 313

Block 2
SMILES: CN(C)CC/C=C1/c2ccccc2Sc2ccc(Cl)cc21
Cell line: MCF7
Method: microarray
Concentration: concentration not given
Relative to: DMSO
measured | log2 fold change
TSC22D3 mRNA | 2.36
TRAF5 mRNA | 1.01
ZNHIT2 mRNA | 1
SLC7A11 mRNA | 1.84

Block 3
Organism: Cryptosporidium parvum
Concentration: concentration not given
Structure (SMILES) | activity
CCCc1cc(=O)[nH]c(=S)[nH]1 | inactive
NC(N)=Nc1nc(CSCCC(N)=NS(N)(=O)=O)cs1 | inactive
Clc1ccccc1CN1CCc2sccc2C1 | inactive
NNCCc1ccccc1 | inactive
CCCN[C@H]1CCc2nc(N)sc2C1 | inactive
OC(CCN1CCCCC1)(c1ccccc1)C1CCCCC1 (stereo not shown) | inactive
Clc1ccc2nsnc2c1NC1=NCCN1 | inactive
CC(C)NCC(O)COc1ccc(CCOCC2CC2)cc1 (stereo not shown) | inactive
O=C1CN(/N=C/c2ccc([N+](=O)[O-])o2)C(=O)N1 | inactive
CNCCCC12CCC(c3ccccc31)c1ccccc12 | inactive
CNCC(O)c1ccc(O)c(O)c1 (stereo not shown) | inactive
Nc1c2c(nc3ccccc13)CCCC2 | inactive
COc1ccc2cc([C@H](C)C(=O)O)ccc2c1 | inactive
CN1CCC[C@H]1c1cccnc1 | inactive
NCCc1ccc(O)c(O)c1 | inactive

Block 4
Method: PAMPA
Structure (SMILES) | log permeability (Pe)
Cc1ncsc1-c1ccc(CNC(=O)[C@@H]2C[C@@H](O)CN2C(=O)[C@@H](NC(=O)CCCCCOC(=O)CC(c2ccccc2)c2ccccc2)C(C)(C)C)cc1 | -6.22
COCC(=O)NCCCCCC(=O)N[C@H](C(=O)N1C[C@H](O)C[C@H]1C(=O)NCc1ccc(-c2scnc2C)cc1)C(C)(C)C | -7.15
Cc1ncsc1-c1ccc(CNC(=O)[C@@H]2C[C@@H](O)CN2C(=O)[C@@H](NC(=O)CCCCCOC(=O)CC23C[C@H]4C[C@@H](C2)C[C@@H](C3)C4)C(C)(C)C)cc1 | -6.7

Other studies, line by line
Compound | target | effect on | method | notes | endpoint | value
CNC(=O)c1ccc(Nc2ncc(C(F)(F)F)c(NCc3nccnc3N(C)S(C)(=O)=O)n2)cc1 | CLK1 | kinase activity |  |  | IC50 | 250 nM
COc1ccc2c(O[C@@H]3C[C@H]4C(=O)N[C@]5(C(=O)O)CC5/C=C\CCCCC[C@H](NC(=O)OC5CCCC5)C(=O)N4C3)cc(-c3csc(NC(=O)C(C)C)n3)nc2c1C (stereo partly shown) | HCV NS3 |  | biochemical |  | IC50 | 6.7 nM
CC1CCN(c2ccnc(NCc3cn(C)cn3)n2)CC1 | OGA human | cellular activity |  |  | EC50 | 450 nM
C[C@H](c1ccnc(Nc2nc3ccc(-c4cc(N(C)C)ncn4)cc3[nH]2)c1)N1CCN(C(=O)CC(F)(F)F)CC1 | TBK1 |  |  | low ATP | IC50 | 2 nM

Some of these lines once more (block 3):
Structure (SMILES) | activity
CNCCCC12CCC(c3ccccc31)c1ccccc12 | inactive
CNCC(O)c1ccc(O)c(O)c1 (stereo not shown) | inactive
Nc1c2c(nc3ccccc13)CCCC2 | inactive
